# Published values pooled from the literature.
# Compare with care: the assays were run in different laboratories. ± marks the error that the study gave.
# Methoprene-tolerant protein with Taiman: Methoprene-tolerant protein, with Taiman (Drosophila melanogaster, UniProt O44118)
# NPR2: Atrial natriuretic peptide receptor 2 (NPR2, Homo sapiens, UniProt P20594)
# Chain of UniProt P20594 (whole entry, looked up): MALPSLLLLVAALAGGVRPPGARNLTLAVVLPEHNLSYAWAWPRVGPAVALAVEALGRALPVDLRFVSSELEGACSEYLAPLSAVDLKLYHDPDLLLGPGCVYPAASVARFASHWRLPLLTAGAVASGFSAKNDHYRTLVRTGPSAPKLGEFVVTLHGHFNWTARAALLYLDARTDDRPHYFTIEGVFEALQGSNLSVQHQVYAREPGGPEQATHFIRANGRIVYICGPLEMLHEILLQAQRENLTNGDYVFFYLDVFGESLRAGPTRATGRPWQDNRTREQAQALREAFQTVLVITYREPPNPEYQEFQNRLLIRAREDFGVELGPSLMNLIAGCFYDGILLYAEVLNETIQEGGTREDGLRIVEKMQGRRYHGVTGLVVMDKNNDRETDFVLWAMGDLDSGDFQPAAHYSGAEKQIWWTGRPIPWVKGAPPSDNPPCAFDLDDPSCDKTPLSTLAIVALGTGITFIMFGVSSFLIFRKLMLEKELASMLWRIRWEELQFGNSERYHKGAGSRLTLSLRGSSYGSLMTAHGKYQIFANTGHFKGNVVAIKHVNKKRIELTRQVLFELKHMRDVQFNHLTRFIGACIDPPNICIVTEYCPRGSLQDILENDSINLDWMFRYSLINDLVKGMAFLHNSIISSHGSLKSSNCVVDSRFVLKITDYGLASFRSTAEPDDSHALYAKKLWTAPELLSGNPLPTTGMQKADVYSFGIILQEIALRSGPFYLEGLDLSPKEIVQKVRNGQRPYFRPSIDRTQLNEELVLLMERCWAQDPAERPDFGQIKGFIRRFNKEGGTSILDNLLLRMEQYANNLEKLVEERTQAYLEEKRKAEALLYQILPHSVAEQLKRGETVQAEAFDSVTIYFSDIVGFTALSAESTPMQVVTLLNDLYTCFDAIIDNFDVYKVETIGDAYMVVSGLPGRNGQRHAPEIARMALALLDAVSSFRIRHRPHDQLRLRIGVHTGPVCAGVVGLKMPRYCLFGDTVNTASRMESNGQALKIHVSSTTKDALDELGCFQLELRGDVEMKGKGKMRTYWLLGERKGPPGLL
# PTGFR: Prostaglandin F2-alpha receptor (PTGFR, Homo sapiens, UniProt P43088)
# Chain of UniProt P43088 (whole entry, looked up): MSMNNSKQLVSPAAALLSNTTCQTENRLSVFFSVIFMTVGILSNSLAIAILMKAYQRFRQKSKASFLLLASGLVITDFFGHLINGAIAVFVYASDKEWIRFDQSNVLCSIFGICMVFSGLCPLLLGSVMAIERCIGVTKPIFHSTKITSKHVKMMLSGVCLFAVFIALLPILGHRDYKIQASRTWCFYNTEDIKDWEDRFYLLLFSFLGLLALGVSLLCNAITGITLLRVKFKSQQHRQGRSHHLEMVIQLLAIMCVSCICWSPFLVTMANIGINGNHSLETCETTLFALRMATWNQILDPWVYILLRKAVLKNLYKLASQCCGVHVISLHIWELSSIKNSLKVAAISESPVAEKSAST
# MC5R: Melanocortin receptor 5 (MC5R, Homo sapiens, UniProt P33032)
# Chain of UniProt P33032 (whole entry, looked up): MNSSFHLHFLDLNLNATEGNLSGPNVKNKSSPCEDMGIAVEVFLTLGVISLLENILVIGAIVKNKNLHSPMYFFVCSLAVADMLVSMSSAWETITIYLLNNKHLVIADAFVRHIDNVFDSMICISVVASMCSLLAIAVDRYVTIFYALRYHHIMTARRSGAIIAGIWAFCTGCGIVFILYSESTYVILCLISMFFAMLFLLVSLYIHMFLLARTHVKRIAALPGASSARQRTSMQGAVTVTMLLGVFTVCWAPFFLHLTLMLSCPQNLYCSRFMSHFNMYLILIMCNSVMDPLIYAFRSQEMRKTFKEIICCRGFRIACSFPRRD
# S1PR2: Sphingosine 1-phosphate receptor 2 (S1PR2, Homo sapiens, UniProt O95136)
# Chain of UniProt O95136 (whole entry, looked up): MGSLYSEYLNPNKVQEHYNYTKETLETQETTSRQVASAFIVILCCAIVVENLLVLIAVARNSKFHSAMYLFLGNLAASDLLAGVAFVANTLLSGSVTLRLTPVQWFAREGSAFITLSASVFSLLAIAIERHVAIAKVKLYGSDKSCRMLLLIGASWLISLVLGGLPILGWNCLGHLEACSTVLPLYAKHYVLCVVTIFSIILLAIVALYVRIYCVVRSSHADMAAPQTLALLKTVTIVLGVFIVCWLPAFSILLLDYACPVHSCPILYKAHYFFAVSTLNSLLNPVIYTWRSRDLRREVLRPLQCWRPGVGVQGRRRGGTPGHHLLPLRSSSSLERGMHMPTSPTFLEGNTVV
# Chain of UniProt Q96P56 (whole entry, looked up): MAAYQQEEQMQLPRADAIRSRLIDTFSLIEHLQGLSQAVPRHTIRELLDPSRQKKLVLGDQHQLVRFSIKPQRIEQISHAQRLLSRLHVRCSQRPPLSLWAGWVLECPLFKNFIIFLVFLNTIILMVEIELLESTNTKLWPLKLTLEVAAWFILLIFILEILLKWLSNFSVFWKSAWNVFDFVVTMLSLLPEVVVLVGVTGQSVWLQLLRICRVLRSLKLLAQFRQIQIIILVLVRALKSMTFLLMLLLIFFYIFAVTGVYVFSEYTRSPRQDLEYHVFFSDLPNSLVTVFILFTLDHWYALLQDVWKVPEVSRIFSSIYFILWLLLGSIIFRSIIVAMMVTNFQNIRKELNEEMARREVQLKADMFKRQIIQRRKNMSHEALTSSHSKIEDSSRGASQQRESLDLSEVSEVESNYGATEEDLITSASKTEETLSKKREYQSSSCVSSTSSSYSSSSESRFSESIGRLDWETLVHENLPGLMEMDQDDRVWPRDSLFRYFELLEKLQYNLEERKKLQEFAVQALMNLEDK
# Chain of UniProt Q9NSD7 (whole entry, looked up): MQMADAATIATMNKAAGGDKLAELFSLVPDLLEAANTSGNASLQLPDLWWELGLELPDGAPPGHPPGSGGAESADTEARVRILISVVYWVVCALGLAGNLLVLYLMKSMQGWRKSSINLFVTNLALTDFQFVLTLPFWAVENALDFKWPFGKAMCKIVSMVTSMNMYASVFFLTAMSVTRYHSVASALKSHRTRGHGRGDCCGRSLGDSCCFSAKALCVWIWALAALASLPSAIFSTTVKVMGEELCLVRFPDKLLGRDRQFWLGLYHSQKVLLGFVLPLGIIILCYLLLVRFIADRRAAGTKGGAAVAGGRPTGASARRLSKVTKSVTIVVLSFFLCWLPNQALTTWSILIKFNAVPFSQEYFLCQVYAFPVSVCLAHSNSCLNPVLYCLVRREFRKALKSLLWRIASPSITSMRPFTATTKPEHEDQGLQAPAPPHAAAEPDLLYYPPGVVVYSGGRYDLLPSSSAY
# Chain of UniProt Q8NEC5 (whole entry, looked up): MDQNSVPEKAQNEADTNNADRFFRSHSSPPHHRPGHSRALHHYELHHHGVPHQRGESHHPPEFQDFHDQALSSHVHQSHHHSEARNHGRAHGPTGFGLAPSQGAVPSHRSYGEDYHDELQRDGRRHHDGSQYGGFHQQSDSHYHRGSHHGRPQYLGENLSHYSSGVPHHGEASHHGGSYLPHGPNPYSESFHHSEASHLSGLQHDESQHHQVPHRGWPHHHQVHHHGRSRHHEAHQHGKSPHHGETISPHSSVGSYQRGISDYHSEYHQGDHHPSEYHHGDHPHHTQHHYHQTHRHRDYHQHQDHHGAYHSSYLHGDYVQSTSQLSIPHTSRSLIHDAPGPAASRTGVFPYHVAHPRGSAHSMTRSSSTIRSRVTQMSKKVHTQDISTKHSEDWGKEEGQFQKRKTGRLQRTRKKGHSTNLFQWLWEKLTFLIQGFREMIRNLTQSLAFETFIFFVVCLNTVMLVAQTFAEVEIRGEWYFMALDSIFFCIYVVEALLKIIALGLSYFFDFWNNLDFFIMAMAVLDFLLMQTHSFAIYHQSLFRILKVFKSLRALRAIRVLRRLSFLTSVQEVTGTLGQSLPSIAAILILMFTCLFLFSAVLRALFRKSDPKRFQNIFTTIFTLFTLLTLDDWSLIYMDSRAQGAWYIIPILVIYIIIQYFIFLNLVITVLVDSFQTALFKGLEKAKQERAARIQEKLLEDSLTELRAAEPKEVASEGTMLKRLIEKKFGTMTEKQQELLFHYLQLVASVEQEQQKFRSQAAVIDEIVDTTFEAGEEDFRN
# Chain of UniProt P41587 (whole entry, looked up): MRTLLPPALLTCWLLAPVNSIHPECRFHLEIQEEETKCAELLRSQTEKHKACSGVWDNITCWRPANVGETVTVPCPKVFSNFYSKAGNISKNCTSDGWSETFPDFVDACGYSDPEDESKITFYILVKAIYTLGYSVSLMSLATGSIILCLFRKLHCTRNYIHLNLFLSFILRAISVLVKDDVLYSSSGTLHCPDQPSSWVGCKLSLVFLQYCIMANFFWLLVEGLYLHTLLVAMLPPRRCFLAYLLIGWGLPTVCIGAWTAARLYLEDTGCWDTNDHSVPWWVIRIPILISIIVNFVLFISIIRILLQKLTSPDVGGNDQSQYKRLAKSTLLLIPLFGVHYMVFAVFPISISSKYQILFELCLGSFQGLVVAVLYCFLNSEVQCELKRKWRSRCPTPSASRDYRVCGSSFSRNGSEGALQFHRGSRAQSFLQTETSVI
# Chain of UniProt P25106 (whole entry, looked up): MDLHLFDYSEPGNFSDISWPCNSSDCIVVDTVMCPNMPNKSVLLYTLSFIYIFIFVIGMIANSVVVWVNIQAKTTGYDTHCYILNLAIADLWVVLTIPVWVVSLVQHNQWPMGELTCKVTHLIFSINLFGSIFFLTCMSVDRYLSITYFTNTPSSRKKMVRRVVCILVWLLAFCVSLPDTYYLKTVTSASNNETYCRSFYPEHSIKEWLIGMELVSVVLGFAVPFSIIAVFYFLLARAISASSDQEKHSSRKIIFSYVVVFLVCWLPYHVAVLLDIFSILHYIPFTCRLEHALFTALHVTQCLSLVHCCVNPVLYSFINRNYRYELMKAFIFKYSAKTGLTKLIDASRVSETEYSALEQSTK
# Chain of UniProt P62942 (whole entry, looked up): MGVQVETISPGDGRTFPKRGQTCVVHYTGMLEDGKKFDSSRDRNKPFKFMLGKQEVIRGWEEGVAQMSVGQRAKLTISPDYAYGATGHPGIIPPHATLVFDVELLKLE
SMILES,target,assay,system,setting,EC50 [µM]
C/C(=C\CC[C@@]1(C)[C@@H]2C=C(CO)CC[C@@H]21)CO,"CatSper channel complex (Homo sapiens, UniProt Q7RTX7+Q86XQ3+Q8NEC5+Q96P56)","calcium influx, activator, FLIPR Fluo-4",human sperm,,0.955
CC[C@H](C)[C@H](NC(=O)CNC(=O)[C@H](CC(=O)O)NC(=O)[C@H](CO)NC(=O)C=Cc1c[nH]cn1)C(=O)N[C@@H](Cc1ccccc1)C(=O)N[C@H](C(=O)N[C@@H](CC(=O)O)C(=O)N[C@@H](CO)C(=O)N[C@@H](Cc1ccc(O)cc1)C(=O)N[C@@H](CO)C(=O)N[C@@H](CCCNC(=N)N)C(=O)N[C@@H](Cc1ccc(O)cc1)C(=O)N[C@@H](CCCNC(=N)N)C(=O)N[C@@H](CCCCN)C(=O)N[C@@H](CCC(N)=O)C(=O)N[C@@H](CCSC)C(=O)N[C@@H](C)C(=O)N[C@H](C(=O)N[C@@H](CCCCN)C(=O)N[C@@H](CCCCN)C(=O)N[C@@H](C)C(=O)N[C@@H](CC(C)C)C(=O)N[C@@H](C)C(=O)N[C@@H](C)C(=O)N[C@H](C(=O)N[C@@H](CC(C)C)C(=O)NCC(=O)N[C@@H](CCCCN)C(=O)N[C@@H](CCCNC(=N)N)C(=O)N[C@@H](Cc1ccc(O)cc1)C(=O)N[C@@H](CCCCN)C(=O)N[C@@H](CCC(N)=O)C(=O)N[C@@H](CCCNC(=N)N)C(=O)N[C@H](C(=O)N[C@@H](CCCCN)C(=O)N[C@@H](CC(N)=O)C(=O)N[C@@H](CCCCN)C(N)=O)C(C)C)C(C)C)C(C)C)[C@@H](C)O,"VIPR2 (Homo sapiens, UniProt P41587)","cAMP production, agonist",PANC-1 transfected with receptor,,> 1
COC(=O)c1ccc(N2CCN(C(=O)C3CC3)C(C)C2)cc1 (stereo not shown),Methoprene-tolerant protein with Taiman,"reporter gene, agonist",HEK293T expressing Drosophila Met/Tai,racemate,0.87
C[C@@H](Nc1c(Nc2ccncc2)c(=O)c1=O)c1ccccc1,"CXCR2 (Homo sapiens, UniProt P25025)","β-arrestin recruitment, agonist",,,0.254
O=C(C1CC=CCC1)N1CCC(CSCc2ccco2)CC1 (stereo not shown),Methoprene-tolerant protein with Taiman,"reporter gene, agonist",HEK293T expressing Drosophila Met/Tai,24 h,> 100
N#CCCN1CCN(C(=O)c2ccc(-c3cc(Cl)ccc3Cl)o2)CC1,NPR2,"cGMP production, positive allosteric modulator, cGMP HTRF",HEK293 expressing human GC-B,with: CNP at EC30,> 10
CSCC[C@H](NC(=O)[C@H](Cc1c[nH]c2ccccc12)NC(=O)CNC(=O)[C@H](Cc1ccc(O)cc1)NC(=O)[C@H](C)NC(=O)[C@H](CCC(=O)O)NC(=O)[C@H](CCC(=O)O)NC(=O)[C@H](CCC(=O)O)NC(=O)[C@H](CCC(=O)O)NC(=O)[C@H](CCC(=O)O)NC(=O)[C@@H](CCC(=O)O)NC(=O)CNC(=O)C(CNCCN)CNCCN)C(=O)N[C@@H](CC(=O)O)C(=O)N[C@@H](Cc1ccccc1)C(N)=O,"CCKBR (Homo sapiens, UniProt P32239)","calcium signal, agonist",,,7.9e-05
O=C(O)/C=C/c1cccc(NC(=O)c2cc(-c3cccc(F)c3)ccc2F)c1,PTGFR,"calcium signal, agonist, fluorescence",,,> 10
N=C(N)NCCC[C@H](NC(=O)[C@H](CC(=O)O)NC(=O)[C@@H]1CSCCCC(=O)NCC(=O)N[C@@H](Cc2c[nH]cn2)C(=O)N[C@H](Cc2ccccc2)C(=O)N[C@@H](CCCNC(=N)N)C(=O)N[C@H](Cc2c[nH]c3ccccc23)C(=O)N1)C(=O)N[C@@H](Cc1ccccc1)C(=O)NCC(N)=O,MC5R,"cAMP, agonist",,,1.3
S=C(c1ccc(-c2cc(Cl)ccc2Cl)o1)N1CCN(Cc2ccccc2)CC1,NPR2,"cGMP production, positive allosteric modulator, cGMP HTRF",HEK293 expressing human GC-B,with: CNP at EC30,> 10
CSCC[C@H](NC(=O)[C@@H]1CCCN1C(=O)CNC(=O)[C@H](CCCCN)NC(=O)[C@H](Cc1c[nH]cn1)NC(=O)[C@H](CO)NC(=O)[C@H](CC(C)C)NC(=O)[C@H](CCCNC(=N)N)NC(=O)[C@@H]1CCCN1C(=O)[C@H](CCCNC(=N)N)NC(=O)[C@H](CCC(N)=O)NC(=O)[C@H](CCCNC(=N)N)NC(=O)[C@H](CCCNC(=N)N)NC(=O)[C@H](Cc1ccccc1)NC(=O)[C@H](CCCCN)NC(=O)[C@H](CCCNC(=N)N)NC(=O)[C@H](CCCNC(=N)N)NC(=O)CNC(=O)CNC(=O)[C@H](CCC(N)=O)NC(=O)[C@H](Cc1c[nH]c2ccccc12)NC(=O)[C@@H]1CCCN1C(=O)CNC(=O)[C@@H]1CCCN1C(=O)CNC(=O)[C@H](CC(N)=O)NC(=O)[C@H](CCCNC(=N)N)NC(=O)[C@H](CO)NC(=O)CNC(=O)[C@H](CCCNC(=N)N)NC(=O)[C@@H]1CCCN1C(=O)[C@H](CCC(N)=O)NC(=O)[C@@H](NC(=O)[C@@H](N)CC(C)C)C(C)C)C(=O)N1CCC[C@H]1C(=O)N[C@@H](Cc1ccccc1)C(=O)O,"Apelin receptor (APLNR, Homo sapiens, UniProt P35414, S339A)","β-arrestin-2 recruitment, agonist, BRET",HEK293,15 min,0.00874 ± 0.00102
Cc1cc(Br)cnc1OCCCNc1n[s+]([O-])nc1NCc1ccc[n+]([O-])c1 (stereo not shown),"Probable G-protein coupled receptor 132 (Gpr132, Mus musculus, UniProt Q9Z282)","β-arrestin recruitment, agonist, PathHunter",cell-based,,1.58
O=C(Nc1ccc2c(c1)OCO2)c1ccc(OC(F)C(F)(F)C(F)(F)F)cc1 (stereo not shown),Methoprene-tolerant protein with Taiman,"reporter gene, agonist",HEK293T expressing Drosophila Met/Tai,24 h,> 100
N=C(N)NCCC[C@H](NC(=O)[C@H](CC(=O)O)NC(=O)[C@@H]1CSCC(=O)NCC(=O)N[C@@H](Cc2c[nH]cn2)C(=O)N[C@H](Cc2ccccc2)C(=O)N[C@@H](CCCNC(=N)N)C(=O)N[C@@H](Cc2c[nH]c3ccccc23)C(=O)N1)C(=O)N[C@@H](Cc1ccccc1)C(=O)NCC(N)=O,MC5R,"cAMP, agonist",,,0.086
C=C1CCN2C(=O)COc3cccc(c3)C(CCc3ccc(OC)c(OC)c3)OC(=O)C3CCCCN3C(=O)C(=O)C(C)(C)COC(=O)C(CC(C)C)NC(=O)C2C1 (stereo not shown),"FKBP1A (Homo sapiens, UniProt P62942)","binding, competitor, TR-FRET",,with: FITC-SLF tracer,0.56
N=C(N)NCCC[C@H](NC(=O)[C@@H]1CSSC[C@H](NC(=O)[C@H](Cc2ccc3ccccc3c2)NC(=O)[C@H](CCCNC(=N)N)NC(=O)[C@@H](N)CCCNC(=N)N)C(=O)N[C@@H](Cc2ccc(O)cc2)C(=O)N[C@@H](CCCNC(N)=O)C(=O)N[C@@H](CCCCN)C(=O)N[C@H](CCCNC(N)=O)C(=O)N2CCC[C@H]2C(=O)N[C@@H](Cc2ccc(O)cc2)C(=O)N[C@@H](CCCNC(=N)N)C(=O)N[C@@H](CCCNC(N)=O)C(=O)N1)C(N)=O,"ACKR3 (Homo sapiens, UniProt P25106)","β-arrestin recruitment, agonist",,,0.0875
N#CCCN1CCN(C(=S)c2ccc(-c3ccccc3C(F)(F)F)o2)CC1,NPR2,"cGMP production, positive allosteric modulator, cGMP HTRF",HEK293 expressing human GC-B,with: CNP at EC30,> 10
CC(C)C[C@H](NC(=O)[C@@H](N)CCCCN)C(=O)N[C@H](C(=O)N[C@@H](Cc1ccccc1)C(=O)N[C@@H](Cc1ccccc1)C(=O)N[C@@H](C)C(=O)N[C@@H](CCC(=O)O)C(=O)O)C(C)C,"fMet-Leu-Phe receptor (Mus musculus, UniProt P33766)","calcium mobilisation, agonist, FLIPR Fluo-4",HEK-293T with Gα16,,4.1
CC[C@H](C)[C@@H]1NC(=O)[C@H](CCCNC(=N)N)NC(=O)[C@H](CC(=O)O)NC(=O)[C@H](CC(C)C)NC(=O)[C@H](CCCCN)NC(=O)[C@H](CC(C)C)NC(=O)CNC(=O)[C@H](Cc2ccccc2)NC(=O)[C@@H](NC(=O)CNC(=O)[C@H](CCCCN)NC(=O)[C@H](CO)NC(=O)[C@H](CC(C)C)NC(=O)CN)CSSC[C@@H](C(=O)O)NC(=O)CNC(=O)[C@H](CC(C)C)NC(=O)CNC(=O)[C@H](CO)NC(=O)[C@H](CCSC)NC(=O)[C@H](CO)NC(=O)CNC1=O,NPR2,"cGMP production, agonist",HEK293 expressing GC-B,,0.003
COc1ccc(N2CCC(NC(=O)C3CC3C)CC2)cc1 (stereo not shown),Methoprene-tolerant protein with Taiman,"reporter gene, agonist",HEK293T expressing Drosophila Met/Tai,24 h,> 100
N#CCCN1CCN(C(=S)c2ccc(-c3ccccc3)o2)CC1,NPR2,"cGMP production, positive allosteric modulator, cGMP HTRF",HEK293 expressing human GC-B,with: CNP at EC30,6.41
CC[C@H](C)[C@@H]1NC(=O)[C@H](Cc2ccccc2)NC(=O)[C@H](CCC(=O)O)NC(=O)[C@H](CCCNC(=N)N)NC(=O)CNC(=O)[C@@H](NC(=O)[C@H](CC(C)C)NC(=O)[C@H](CCCNC(=N)N)NC(=O)[C@@H](NC(=O)CNC(=O)[C@H](Cc2ccc(O)cc2)NC(=O)[C@@H]2CCCN2C(=O)[C@H](C)NC(=O)[C@H](C)NC(=O)[C@@H](N)CCCNC(=N)N)C(C)C)CSSC[C@@H]2NC(=O)[C@@H](NC(=O)[C@H](CO)NC(=O)[C@H](CO)NC(=O)[C@H](CO)NC(=O)[C@H](CC(C)C)NC(=O)CNC(=O)[C@H](C)NC(=O)[C@H](CC(C)C)NC(=O)[C@@H](NC(=O)[C@@H](N)CC(=O)O)C(C)C)CSSC[C@H](NC(=O)CNC(=O)[C@H](Cc3c[nH]c4ccccc34)NC(=O)[C@H](CCCCN)NC2=O)C(=O)N[C@@H](CO)C(=O)N[C@@H](CCCCN)C(=O)N[C@@H](CO)C(=O)N[C@@H](CCC(=O)O)C(=O)N[C@@H]([C@@H](C)CC)C(=O)N[C@@H](CO)C(=O)N[C@@H](CO)C(=O)N[C@@H](CC(C)C)C(=O)N[C@H](C(=O)O)CSSC[C@@H](C(=O)NCC(=O)NCC(=O)N[C@@H](CO)C(=O)N[C@@H](CCCNC(=N)N)C(=O)N[C@@H](Cc2c[nH]c3ccccc23)C(=O)O)NC(=O)[C@H]([C@@H](C)O)NC(=O)[C@H](Cc2ccccc2)NC(=O)[C@H]([C@@H](C)CC)NC(=O)[C@H](C(C)C)NC(=O)[C@H](C)NC(=O)[C@H](CCCNC(=N)N)NC1=O,"RXFP3 (Homo sapiens, UniProt Q9NSD7)","cAMP, agonist",,,0.00052
N#CCCN1CCN(C(=S)c2ccc(-c3ccccc3Cl)o2)CC1,NPR2,"cGMP production, positive allosteric modulator, cGMP HTRF",HEK293 expressing human GC-B,with: CNP at EC30,2.33
Cc1cc(C(=O)Cn2ccccc2=O)c(C)n1Cc1ccccc1,S1PR2,"reporter gene, agonist",,,> 10
N#CCCN1CCN(C(=S)c2ccc(-c3cc(Cl)ccc3Cl)o2)CC1,NPR2,"cGMP production, positive allosteric modulator, cGMP HTRF",HEK293 expressing human GC-B,with: CNP at EC30,0.79
Cc1cc(C(=O)CN2C(=O)CCC2=O)c(C)n1Cc1ccccc1,S1PR2,"reporter gene, agonist",,,1
N#CCC(=O)N1CCN(C(=S)c2ccc(-c3cc(Cl)ccc3Cl)o2)CC1,NPR2,"cGMP production, positive allosteric modulator, cGMP HTRF",HEK293 expressing human GC-B,with: CNP at EC30,1.99
O=C(O)/C=C/c1cccc(NC(=O)c2cc(-c3ccc(F)cc3)ccc2F)c1,PTGFR,"calcium signal, agonist, fluorescence",,,> 10

# Excerpt of the above:
SMILES,target,assay,system,setting,EC50 [µM]
O=C(O)/C=C/c1cccc(NC(=O)c2cc(-c3ccc(F)cc3)ccc2F)c1,PTGFR,"calcium signal, agonist, fluorescence",,,> 10
Cc1cc(Br)cnc1OCCCNc1n[s+]([O-])nc1NCc1ccc[n+]([O-])c1 (stereo not shown),"Probable G-protein coupled receptor 132 (Gpr132, Mus musculus, UniProt Q9Z282)","β-arrestin recruitment, agonist, PathHunter",cell-based,,1.58
N#CCCN1CCN(C(=O)c2ccc(-c3cc(Cl)ccc3Cl)o2)CC1,NPR2,"cGMP production, positive allosteric modulator, cGMP HTRF",HEK293 expressing human GC-B,with: CNP at EC30,> 10
